# Assay results gathered from unrelated publications.
# Every numbered part comes from another study and shows a few of its results, in no order.

# Series 1
# Target: Prothrombin, mature alpha-thrombin (F2, Homo sapiens, UniProt P00734)
# Technique: aptamer microarray, sandwich
# Molecule type: DNA with 2'F-ANA
# Sample: in vitro
# Concentration: 200 nM
# Notes: whole 15-mer aptamer, many near background
# Together with: Cy3 exosite-II aptamer, 400 nM
# Reading: higher = stronger binding
# Strand: GGTTGGTGTGGTTGG
Modification,mean fluorescence intensity [a.u.]
2'F-ANA at 9 10 12 15,216
2'F-ANA at 1 3 5 6 7 9 10 11 12 14,52.6
2'F-ANA at 2 4 7 11,365
2'F-ANA at 1 6 9 10 12,62.4
2'F-ANA at 6 8 10 11 14 15,89.2
2'F-ANA at 2 7 8 9 11 12 13 15,527
2'F-ANA at 3 5 9 10 12 14 15,87.5
2'F-ANA at 1 2 3 6 7 11 13 14 15,62
2'F-ANA at 2 4 5 7 8 11 12 14 15,49.4
2'F-ANA at 1 5 14 15,42.5
2'F-ANA at 1 2 3 4 5 6 11 13 15,72.4
2'F-ANA at 7 12,991
2'F-ANA at 2 3 6 7 9 13 15,464
2'F-ANA at 2 3 6 7 9 10 13 14,300
2'F-ANA at 1 2 4 5 7 9 13 15,48.3
2'F-ANA at 2 4 6 9 10 13 14,59.3
2'F-ANA at 2 3 4 6 9 10 12 13 15,209
2'F-ANA at 1 2 7 8 9 10 12 13,62.6
2'F-ANA at 1 7 8 10 12 14,46.5
2'F-ANA at 1 4 6 7 14,49.5
2'F-ANA at 1 3 4 6 8 10 12 15,74.7
2'F-ANA at 1 2 3 4 9,209
2'F-ANA at 1 2 4 7 12 15,378
2'F-ANA at 1 2 3 8 9 10 11 13 14 15,53.1

# Series 2
# Target: RING finger protein unkempt homolog, zinc fingers 1-6, GST-SBP tag (UNK, Homo sapiens, UniProt Q9C0B0, residues 30-357)
# Technique: RNA Bind-n-Seq
# Molecule type: RNA
# Sample: in vitro
# Concentration: not given
# Notes: RNA with constant flanks, human and mouse sites, ends assumed
# Reference: input RNA pool
# Reading: higher = stronger binding
# Residues (chain): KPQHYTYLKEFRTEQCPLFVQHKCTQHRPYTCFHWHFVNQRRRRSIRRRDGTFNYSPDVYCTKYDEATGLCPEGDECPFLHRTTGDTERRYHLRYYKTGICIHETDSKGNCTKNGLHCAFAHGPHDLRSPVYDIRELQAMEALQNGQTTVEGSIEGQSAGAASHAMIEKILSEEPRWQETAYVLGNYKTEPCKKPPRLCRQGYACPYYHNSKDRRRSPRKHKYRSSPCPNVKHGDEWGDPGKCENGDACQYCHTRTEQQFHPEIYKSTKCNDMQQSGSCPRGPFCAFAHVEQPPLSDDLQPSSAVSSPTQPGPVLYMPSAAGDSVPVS
Strand,bound/input enrichment [ratio]
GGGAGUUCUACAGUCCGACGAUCACUUGACUUCAGGCAGCAGAUUGUCUAGAAGCCUAAGGACAGCAAUUUCUCUGACAAGACAAAGUAGAUAUUUUAUACCAGGGGUUGGCAAACUACUGCCCACGGGCCGAAUUUGGCCCACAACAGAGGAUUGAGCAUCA,1.26
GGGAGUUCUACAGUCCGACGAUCAAGGAUUCUCUGCCCCGCUUUGUGCGCUCUGAAUUUUAUAAGGAGCUAAUCAAGUAGUCAUCUGGUCAGGCUUCCAAAAGUUGCCCUGUGAGUUGAGUUACAUCCUUUGUAGCAACACAGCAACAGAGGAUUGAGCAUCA,0.394
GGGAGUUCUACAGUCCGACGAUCUAUGCAGGUGCCUUGAGAGCUUCAGGGGAAAUGGCUUCAGCGCAGUAUAUUACUGCAGCCCUUAGAGAUUUGUUUGAUUCCAUGGAUAAAACUUCUUCCAGUAUUCCACCUAUUAUUCUACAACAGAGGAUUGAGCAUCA,0.739
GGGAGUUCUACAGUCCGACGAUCUUUUACAAGGGGGACAAAGACAAUAAGUAUGUUCCCUACUCGGAGAGCUUCAGCCAAGUUUUAGAGGAAACUUACAUGCUUGCUGUAACUUUGGAUGAAUGGAAAAAGAAACUGGAAUCUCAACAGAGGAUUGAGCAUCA,0.131
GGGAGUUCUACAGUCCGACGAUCAAUACCCAAACUCCCAUCUAUGGGACUGAGCACAAUAGUGAAAACACAGACUUUGGUGACUCUGGAAGGCUUUACUAUUGUAAACACUGUGACUUUAACAACAAAUCUGCCCGGAGUGUUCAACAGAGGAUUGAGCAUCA,0.387
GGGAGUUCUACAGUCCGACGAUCAAGGCAACACUGGUGGCUUCCUGCCCUUCGCCGCUCCUUGCCUCCCGUUUUGCUGGGUAUUUUAGAUUGGGAGUGACCCCUGUGAUUCCAGCCAUGGGUGCCUCAGCAUCUUCUCCUGCUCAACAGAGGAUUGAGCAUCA,0.195
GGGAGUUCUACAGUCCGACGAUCUUUUUUUUGUAACCACUGUCUUGAUGGCAAAAUAAUUAUGGUAAAAAACAAGUCUCGUGUUUAUUAUUCCUUAAGAACUCUGUGUUAUAUUACCAUGGAACGCCUAAUAAAGCAAAAUGUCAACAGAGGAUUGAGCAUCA,0.283
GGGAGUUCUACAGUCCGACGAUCGAUGCUCUGAACAUUGAGACAGCAGUCAAGACCAAAGGAGUGGAUGAGGUCACCAUUGUCAACAUCCUGACAAACCGCAGCAAUGUGCAGAGGCAGGACAUUGCCUUCGCCUAUCAGAGACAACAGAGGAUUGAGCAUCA,0.0907

# Series 3
# Cell line: yeast with cyclin A1-Cln2 chimera
# Observed: cell growth
# Mode: binder
# Technique: competitive growth deep sequencing
# Molecule type: peptide
# Concentration: concentration not given
# Notes: peptide tiling library
# Reading: direction not given
Sequence,growth enrichment score
SCCKRKLVVGNGPEGP,-0.165
FREFEVEKQTAEETGL,1.2
IVLICAKRSLCAAFSV,-0.0865
PARRRLRLSVDEVSSP,-0.101
RRVLCFDS,-0.351
ALTMEALEDPSPELME,1.48
NARRSLNFGGSTGT,-0.213
RKLHFEDEVT,-0.351
PLRKAKRARLCSSSSS,0.317
SSEVARHLLFQSHM,-0.278
KPITLDTTDFQESFVT,0.0215
AIRKMREDRWAVIAKM,-0.844
PAKRRLELGE,0.358
LRRQLSFSED,-0.109
SAVPLILPQAPSGPSY,0.171
KRCATPVIIDEILPSK,0.219
IPDRSTKPVVFSPT,-0.582
TARRIFQEPTEPKTKA,-0.134
EPRNLLSLFEDTLDPT,1.09

# Series 4
# Target: Histone acetyltransferase KAT6A, winged helix 2, GST fusion (KAT6A, Homo sapiens, UniProt Q92794, residues 85-181)
# Technique: protein binding microarray
# Molecule type: double-stranded DNA, one strand shown
# Sample: in vitro
# Concentration: not given
# Notes: 8-mer, flanks averaged, mean of 2 arrays, mostly near background
# Reference: not given
# Reading: higher = stronger binding
# Construct (chain): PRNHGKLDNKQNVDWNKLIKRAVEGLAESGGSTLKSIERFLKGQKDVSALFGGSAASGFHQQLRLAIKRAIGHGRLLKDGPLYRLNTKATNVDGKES
Strand,E-score
CATCTTGC,0.0368
AGAATATA,-0.227
CCAAGGAA,-0.153
TGGGCCCA,0.00276
ATGGAATC,0.0689
CTGAAGAA,-0.158
TGAGGAAA,-0.0273
TAGCGCGA,-0.0244
AGGAAAGC,-0.0566
GTCCAGGA,-0.067
GCGCAATA,-0.0135
AGGGCTTG,0.00781
GGGGCTTA,-0.0572
CAATTATG,-0.041
TTTCGAAA,0.125
CAACTCCC,0.156

# Series 5
# Target: RNA binding protein fox-1 homolog 2, RRM domain, GST-SBP tag (RBFOX2, Homo sapiens, UniProt O43251-10, residues 100-194)
# Technique: RNA Bind-n-Seq
# Molecule type: RNA
# Sample: in vitro
# Concentration: 365 nM
# Notes: natural RNA segment, single round, ends assumed
# Reference: no-protein control
# Reading: higher = stronger binding
# Target sequence (chain): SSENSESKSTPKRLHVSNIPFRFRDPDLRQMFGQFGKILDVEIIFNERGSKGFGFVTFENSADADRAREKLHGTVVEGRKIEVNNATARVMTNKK
Strand,RBNS enrichment (R)
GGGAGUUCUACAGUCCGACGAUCUGCAUCACCUCUUCUCAUCAGUGGUCAGGAGAAGUGCAGCUAGAAAGUGGCCCACACAAGCCGUCUGAUUUGUCCUCCCACAUAAUGGCAGGCACAGGCCAUGGCACUGGUGGAAUUCUCGGGUGCCAA,0.263
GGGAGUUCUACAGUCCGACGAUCCUUUUAUGAAAUCACUACAAUAGAUCUACGUUGGAAAUAACUAUCAAUUUGUAAAGAAAUUUUUAUUAAACACUGUAGAAAAAGUGAAGCUGAGAACUCUUUUGUGCAUUUGGAAUUCUCGGGUGCCAA,1.92
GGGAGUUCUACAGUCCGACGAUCCCUCUGCUUGUACAGAGCCCAUGGUCGGGACAGUGCCCUGGCCUUUGCCGGGGAGGAGGAUGCUCUGAGAUUCAGGGUGGGGCUGGCAACCCCUGAAGAGAACACUUCCUUGGAAUUCUCGGGUGCCAA,0.287
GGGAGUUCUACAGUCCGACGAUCAUGAGCCCUGAGGAACACAGGGAGGGCCUUGAAGAACAAUCUACAGAUGCACAAUCCUUUCCAACCUACAACUUCCUCAAAAUCCAGAGCCAGCCAAAGGAUCAAUGAAGUGGAAUUCUCGGGUGCCAA,0.651
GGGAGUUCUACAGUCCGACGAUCCUGAUUGGCCUCCUUCUGGGAUCCCAGGCUGCUGAGGAAGCUACUGCUACAUCCCUACCCCAAGGGGCUUGGUCAAGGUGCCUGUUCCUGGCUCUCUGGCUGCAUGUGAUUGGAAUUCUCGGGUGCCAA,4.87
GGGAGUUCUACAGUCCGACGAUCAAUUGUCUGACCCUAGAGGCAGAUGCUGCACUGCACUACUCCAAUGUCUUCCAUGGAGCCUCAGGUGCUCCCCCUCUCACCUGGCAGCCCCUUCAGCUGCUAGUGAUAUCUGGAAUUCUCGGGUGCCAA,0.317
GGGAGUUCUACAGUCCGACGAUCCUGUCAUGACAUGCUAACUAGACUUCAGGGGAGCCACUUCUGUUUUCAGCCCCUCCCUGGAAUAGUGAGUUGGGAGGAUGGGGAGACAGCUAACCAACUGCAUUACCCAAUGGAAUUCUCGGGUGCCAA,0.899
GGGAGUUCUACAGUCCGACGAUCGAAACGCAGAGUCAAUCAGGUUUAUAAAGGAAGGCUGAGGGGAGAGAGGAGGCCUGGGGGCCUGGACGAAGAGGCCUAGGACCUGAAGAGACUCCAGCGAGUCUCGGGAAUGGAAUUCUCGGGUGCCAA,0.54
